# Published values gathered from unrelated publications.
# Lines come from different studies, so protocols differ. Values joined by “and” are separate records of one study, mostly repeats; a detail may differ. ± marks the error that the study gave.
# UniProt P48067, sequence (whole entry, looked up): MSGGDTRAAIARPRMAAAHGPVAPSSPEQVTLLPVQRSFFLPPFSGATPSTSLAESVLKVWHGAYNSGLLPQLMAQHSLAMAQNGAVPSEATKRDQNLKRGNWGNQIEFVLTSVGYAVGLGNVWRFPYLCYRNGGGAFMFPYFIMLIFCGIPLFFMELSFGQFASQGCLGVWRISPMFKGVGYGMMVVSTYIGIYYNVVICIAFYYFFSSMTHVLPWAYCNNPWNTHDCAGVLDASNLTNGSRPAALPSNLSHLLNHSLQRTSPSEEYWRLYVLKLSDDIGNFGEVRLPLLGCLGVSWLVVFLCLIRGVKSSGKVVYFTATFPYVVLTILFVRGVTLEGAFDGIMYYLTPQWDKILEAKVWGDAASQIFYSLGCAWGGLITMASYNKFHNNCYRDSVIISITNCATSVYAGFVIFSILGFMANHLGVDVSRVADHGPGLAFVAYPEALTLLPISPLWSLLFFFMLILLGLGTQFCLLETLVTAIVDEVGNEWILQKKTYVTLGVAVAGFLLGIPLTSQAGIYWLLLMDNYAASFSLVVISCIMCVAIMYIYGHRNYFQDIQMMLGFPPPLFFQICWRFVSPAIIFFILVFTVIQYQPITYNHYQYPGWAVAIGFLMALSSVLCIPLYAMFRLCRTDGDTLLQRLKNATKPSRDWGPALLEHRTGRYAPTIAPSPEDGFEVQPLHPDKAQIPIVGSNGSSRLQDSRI
# UniProt Q64663, sequence (whole entry, unmodified, looked up): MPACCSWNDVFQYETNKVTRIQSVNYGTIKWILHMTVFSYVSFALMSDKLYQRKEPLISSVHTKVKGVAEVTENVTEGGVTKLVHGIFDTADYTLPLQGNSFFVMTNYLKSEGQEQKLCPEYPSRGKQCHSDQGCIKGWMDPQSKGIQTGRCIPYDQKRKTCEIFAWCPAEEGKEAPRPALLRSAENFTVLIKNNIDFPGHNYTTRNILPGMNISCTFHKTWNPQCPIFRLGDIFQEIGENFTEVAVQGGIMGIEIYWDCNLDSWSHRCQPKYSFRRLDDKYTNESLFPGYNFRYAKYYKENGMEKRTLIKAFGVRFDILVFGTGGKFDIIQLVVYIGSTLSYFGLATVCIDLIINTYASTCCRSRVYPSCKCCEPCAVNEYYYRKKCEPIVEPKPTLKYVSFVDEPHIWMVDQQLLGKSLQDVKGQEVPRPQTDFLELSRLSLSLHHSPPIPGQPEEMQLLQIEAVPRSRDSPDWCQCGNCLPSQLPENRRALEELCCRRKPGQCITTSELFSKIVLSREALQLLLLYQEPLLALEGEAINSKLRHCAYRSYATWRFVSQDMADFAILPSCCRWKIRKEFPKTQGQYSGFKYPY
Molecule,target or system,test,system,setting,how to read,quantity,result
GLLEWVSMV,Jurkat T cells expressing 1G4 TCR,"NFAT-eGFP reporter, fluorescence microscopy",peptide,"concentration not given, HLA-A*02:01 NY-ESO system",,reporter activation,0.0108%
NPDALPETLV,human SCRIB PDZ3-4 tandem (MBP fusion),automated holdup,"peptide, crude extract","concentration not given, uncorrected, unit not given","reference: biotin control resin, higher = stronger binding",binding intensity,0.169
"FNA / CGLSGLGVA-NH2 ([18F]FNA-labelled, C-amide)",,ex vivo gamma counting,"peptide, glioblastoma mouse model, muscle","60 min post injection, together with: 500-fold excess CooP blocking",,tissue uptake,0.2 %ID/g
GGWVEKETYY,human MAGI1-3/6 PDZ construct (MBP fusion),automated holdup,"peptide, purified PDZ protein","concentration not given, unit not given","reference: biotin control resin, higher = stronger binding",binding intensity,0.0147
ILEAAKSIAAATSALVKAASAAQRE,vinculin head domain Vd1,"complex rupture, AFM single-molecule force spectroscopy",peptide,"traces traces, C-terminal pulling, 800 nm/s",,rupture force FWHM lower side,28.5 pN
caspofungin,,,"adult ICU patients, mITT, serum","dose not given, EOT",,potassium,4.2 mmol/L
GLLQWVSQV,Jurkat T cells expressing 1G4 TCR,"NFAT-eGFP reporter, fluorescence microscopy",peptide,"concentration not given, HLA-A*02:01 NY-ESO system",,reporter activation,22.2%
insulin aspart,,"ELISA after PEG precipitation, measured: free insulin aspart","human, type 1 diabetes, serum","subcutaneous, dose not given, least squares mean, single dose",,time to late 50 % Cmax,157 min
USP14,,co-immunoprecipitation,human RBC cytosol,"DMTMM crosslinker, unit not given, together with: Band 3 peptide 1-56 bait",reference: negative control,co-IP enrichment,30900
GSGAGSETVV,human SCRIB PDZ3-4 tandem (MBP fusion),automated holdup,"peptide, purified PDZ protein","concentration not given, unit not given","reference: biotin control resin, higher = stronger binding",binding intensity,0.281
GLLEWISLV,Jurkat T cells expressing 1G4 TCR,"NFAT-eGFP reporter, fluorescence microscopy",peptide,"concentration not given, HLA-A*02:01 NY-ESO system",,reporter activation,0.0081%
tripeptidyl peptidase 2,,co-immunoprecipitation,human RBC membrane,"DMTMM crosslinker, unit not given, together with: Band 3 peptide 1-56 bait",reference: negative control,co-IP enrichment,223
methyl-β-cyclodextrin,"Sodium- and chloride-dependent glycine transporter 1 (SLC6A9, Homo sapiens, UniProt P48067)","transport activity, [3H]glycine uptake",,"2.5 mg/mL, 1 min, together with: glycine 600 µM",higher = more transport,glycine uptake rate,62.9 a.u. and 51.1 a.u. and 51.4 a.u. and 66.3 a.u.
ERK2,,co-immunoprecipitation,human RBC membrane,"no crosslinker, unit not given, together with: Band 3 peptide 1-56 bait",reference: negative control,co-IP enrichment,0
Peginesatide,UT7/EPO,"RT-qPCR, measured: SOCS3",,"concentration not given, 90 min, normalized to HPRT1",reference: vehicle,mRNA level,26.8 fold
insulin degludec,,,human,"subcutaneous, 0.4 IU/kg, 1 FC level, single dose, reference formulation",,terminal half-life,14.1 ± 2.4 h
epoetin alfa,UT7/EPO,"microarray, measured: EGR1 mRNA (probe set 227404_s_at)",,"5 U/mL, 90 min",reference: vehicle,mRNA level,9.7 fold
GLAQWISGV,Jurkat T cells expressing 1G4 TCR,"NFAT-eGFP reporter, flow cytometry",peptide,"concentration not given, HLA-A*02:01 NY-ESO system",,reporter activation,0.19%
GSGAGICTIV,human SCRIB PDZ3-4 tandem (MBP fusion),automated holdup,"peptide, crude extract","concentration not given, uncorrected, unit not given","reference: biotin control resin, higher = stronger binding",binding intensity,0.425
human HSC70,,co-immunoprecipitation,human RBC membrane,"DSSO crosslinker, unit not given, together with: Band 3 peptide 1-56 bait",reference: negative control,co-IP enrichment,12.5
BzATP,"P2X purinoceptor 7 (P2rx7, Rattus norvegicus, UniProt Q64663, I214A/R125A)","ion current, agonist, two-electrode voltage clamp",Xenopus laevis oocytes,3.7 µM,reference: highest concentration response,normalized current,0.06 and 0.08 and 0.05
human alpha-enolase,,co-immunoprecipitation,human RBC membrane,"DSSO crosslinker, unit not given, together with: Band 3 peptide 1-56 bait",reference: negative control,co-IP enrichment,0.207
TASPAKETSF,human MAGI1-3/6 PDZ construct (MBP fusion),surface plasmon resonance,peptide,concentration not given,higher = stronger binding,normalised SPR binding response,0 normalised RU
FKBP12,,co-immunoprecipitation,human RBC membrane,"unit not given, together with: Band 3 peptide 1-56 bait",reference: negative control,co-IP enrichment,0
cotadutide,,,"C57BL/6J mouse, AMLN diet NASH model","dose not given, terminal",,plasma triglycerides,72 ± 5 mg/dL
MTVCNASQRQAHAQATAVSL,H2126,phage binding,peptide,,reference: targeting over control phage,selectivity ratio,7.1
NRVDSKETEC,human MAGI1-3/6 PDZ construct (MBP fusion),automated holdup,"peptide, purified PDZ protein","concentration not given, unit not given","reference: biotin control resin, higher = stronger binding",binding intensity,0.0477
milbemycin oxime,Saccharomyces cerevisiae,cell growth,"Pdr5 deleted, Cdr1 overexpressed",2^-6.644 µg/mL,,OD600,0.989 and 0.997 and 0.987
Teicoplanin,,measured: stability,human serum,"1 days, 2-6 °C, high QC",,recovery,98.8%
GLGQWIPQA,Jurkat T cells expressing 1G4 TCR,"NFAT-eGFP reporter, flow cytometry",peptide,"concentration not given, HLA-A*02:01 NY-ESO system",,reporter activation,0.076%
colistin,Klebsiella oxytoca,broth microdilution,clinical isolate RKI-No 52/07,,,MIC,2 µg/mL
"DNA 1 CACTGGCCGTCTTACGGTCGCTCTGCTCGACG / DNA 2 CGACCGTAAGACGGCCAGTG (dsDNA; 20 bp, 3' 12 nt overhang)","RECQL 63-592 K171A (Homo sapiens, UniProt P46063)",fluorescence anisotropy,double-stranded DNA,together with: Mg2+ 3 mM,,Kd,78.8 ± 36.7 nM
UBE2I,,co-immunoprecipitation,human plasma,"no crosslinker, unit not given, together with: Band 3 peptide 1-56 bait",reference: negative control,co-IP enrichment,0
Polymyxin B,Staphylococcus aureus,DiSC3(5) fluorescence,,"concentration not given, 54 min",higher = more depolarisation,membrane depolarisation,520 a.u. and 577 a.u. and 725 a.u.
QGRWDHETIV,human MAGI1-2/6 PDZ construct (MBP fusion),surface plasmon resonance,peptide,concentration not given,higher = stronger binding,normalised SPR binding response,0 normalised RU
CCT4,,co-immunoprecipitation,human RBC membrane,"unit not given, together with: Band 3 peptide 1-56 bait",reference: negative control,co-IP enrichment,0
calcium,,"ion current, two-electrode voltage clamp",Xenopus oocytes,"10 mM, -80 mV, together with: niflumic acid present",,desensitization time constant,7.47 s and 6.97 s and 10.1 s and 10.8 s
ACEQNPIYWARYADWLFTTPLLLLDLALLVDADEGT,,ex vivo fluorescence imaging,"peptide, BALB/c mice, 4T1 tumour-bearing, muscle","intravenous, 5 nmol, 4 h post-injection",higher = more uptake,mean fluorescence intensity,1210 ± 189 a.u.
11-deoxycorticosterone,,stopped-flow global kinetic fitting,,"4-state closed model (best), 10-fold adrenodoxin excess, together with: substrate binding k-3",,rate constant,197 ± 10.3 min⁻¹
ALMTWVTQV,Jurkat T cells expressing 1G4 TCR,"NFAT-eGFP reporter, fluorescence microscopy",peptide,"concentration not given, HLA-A*02:01 NY-ESO system",,reporter activation,22.9%
"Ac-LRKLRKRLLRDWLKAFYDKVAEKLKEAF-NH2 (N-acetyl, C-amide)",HepG2,,peptide,"20 µg/mL, 18 h",reference: untreated cells,preβ-HDL apoA-I fold increase,2.5 fold
ACEEQNPWARYLEWLFPTETLLLEL,,ex vivo fluorescence imaging,"peptide, BALB/c mice, 4T1 tumour-bearing, muscle","intravenous, 5 nmol, 24 h post-injection",higher = more uptake,mean fluorescence intensity,191 ± 8.3 a.u.
SLLQWTTQV,Jurkat T cells expressing 1G4 TCR,"NFAT-eGFP reporter, flow cytometry",peptide,"concentration not given, HLA-A*02:01 NY-ESO system",,reporter activation,68.7%
GSGAGKESYV,human MAGI1-3/6 PDZ construct (MBP fusion),automated holdup,"peptide, crude extract","concentration not given, uncorrected, unit not given","reference: biotin control resin, higher = stronger binding",binding intensity,0.74
GLLQWVSVV,Jurkat T cells expressing 1G4 TCR,"NFAT-eGFP reporter, fluorescence microscopy",peptide,"concentration not given, HLA-A*02:01 NY-ESO system",,reporter activation,0.0116%
GEMVGQARILAQATSDLVNAIKDA,vinculin head domain Vd1,"complex rupture, AFM single-molecule force spectroscopy",peptide,"single traces, C-terminal pulling, 800 nm/s",,rupture force FWHM lower side,20.9 pN

# Some of these lines once more:
Molecule,target or system,test,system,setting,how to read,quantity,result
BzATP,"P2X purinoceptor 7 (P2rx7, Rattus norvegicus, UniProt Q64663, I214A/R125A)","ion current, agonist, two-electrode voltage clamp",Xenopus laevis oocytes,3.7 µM,reference: highest concentration response,normalized current,0.06 and 0.08 and 0.05
GSGAGSETVV,human SCRIB PDZ3-4 tandem (MBP fusion),automated holdup,"peptide, purified PDZ protein","concentration not given, unit not given","reference: biotin control resin, higher = stronger binding",binding intensity,0.281
GSGAGICTIV,human SCRIB PDZ3-4 tandem (MBP fusion),automated holdup,"peptide, crude extract","concentration not given, uncorrected, unit not given","reference: biotin control resin, higher = stronger binding",binding intensity,0.425
11-deoxycorticosterone,,stopped-flow global kinetic fitting,,"4-state closed model (best), 10-fold adrenodoxin excess, together with: substrate binding k-3",,rate constant,197 ± 10.3 min⁻¹
USP14,,co-immunoprecipitation,human RBC cytosol,"DMTMM crosslinker, unit not given, together with: Band 3 peptide 1-56 bait",reference: negative control,co-IP enrichment,30900
GSGAGKESYV,human MAGI1-3/6 PDZ construct (MBP fusion),automated holdup,"peptide, crude extract","concentration not given, uncorrected, unit not given","reference: biotin control resin, higher = stronger binding",binding intensity,0.74
FKBP12,,co-immunoprecipitation,human RBC membrane,"unit not given, together with: Band 3 peptide 1-56 bait",reference: negative control,co-IP enrichment,0
